Published values collected from several papers.
Every numbered part comes from another study and shows a few of its results, in no order. Changes are numbered by the printed parent chain.

Set 1 — read-out: enzyme activity; action: inhibitor; technique: radiometric; concentration: 0.5 µM
Target: Serine/threonine-protein kinase 33 (STK33, Homo sapiens, UniProt Q9BYT3)
Chain of UniProt Q9BYT3 (whole entry, looked up): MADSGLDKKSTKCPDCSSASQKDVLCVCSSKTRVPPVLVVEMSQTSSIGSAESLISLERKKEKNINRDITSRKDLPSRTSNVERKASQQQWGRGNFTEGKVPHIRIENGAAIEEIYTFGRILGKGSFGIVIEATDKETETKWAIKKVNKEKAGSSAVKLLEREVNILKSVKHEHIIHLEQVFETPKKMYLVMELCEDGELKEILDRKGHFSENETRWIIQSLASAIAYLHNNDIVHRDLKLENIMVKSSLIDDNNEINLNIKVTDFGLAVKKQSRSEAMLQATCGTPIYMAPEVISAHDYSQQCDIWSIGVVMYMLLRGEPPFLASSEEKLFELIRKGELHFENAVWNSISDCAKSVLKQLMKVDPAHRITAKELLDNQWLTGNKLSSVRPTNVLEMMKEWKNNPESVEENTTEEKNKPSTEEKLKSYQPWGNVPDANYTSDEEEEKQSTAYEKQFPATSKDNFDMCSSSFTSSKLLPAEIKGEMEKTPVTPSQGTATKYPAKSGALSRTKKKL
SMILES	remaining activity
Cc1nc2cc3nc(-c4cccs4)cnc3cc2n1C	91.5%
c1ccc(-c2cnc(Nc3ccc(OCCN4CCCC4)cc3)s2)cc1	91%
CCN(CC)CCNC(=O)c1c(C)[nH]c(/C=C2\C(=O)Nc3ccc(F)cc32)c1C	31.8%
O=C1c2ccccc2-c2n[nH]c3cccc1c23	47.7%
Cn1nc2c3c(cccc31)C(=O)c1ccccc1-2	81.3%
c1ccc(-c2[nH]ncc2-c2ccnc3ccccc23)nc1	92.9%
Ic1cccc(CSc2nnc(-c3ccncc3)o2)c1	111%
COc1cc2c(cc1OC)-c1[nH]nc(Nc3cccc(F)c3)c1C2	99.5%
O=C(Nc1cccc(Nc2nccc(Nc3cccc(C(F)(F)F)c3)n2)c1)C1CC1	81.5%
COc1cc2ncnc(Nc3cccc(Cl)c3)c2cc1OC	88.3%
C[C@@H]1CCN(C(=O)CC#N)C[C@@H]1N(C)c1ncnc2[nH]ccc12	97.8%
O=C1c2ccccc2-[n+]2ccc3c([nH]c4ccccc43)c21	101%
COC[C@H]1OC(=O)c2coc3c2[C@@]1(C)C1=C(C3=O)[C@@H]2CCC(=O)[C@@]2(C)C[C@H]1OC(C)=O	88.2%
N#Cc1c(NC(=O)c2cccc3ccccc23)sc2c1CCCC2	93%
Cc1cc2ncc(-c3ccccc3)nc2cc1C	94.1%

Set 2 — read-out: binding; technique: phage display NGS; molecule type: peptide; baseline: input library
Target: UDP-N-acetylglucosamine--peptide N-acetylglucosaminyltransferase 110 kDa subunit (OGT, Homo sapiens, UniProt O15294)
Chain of UniProt O15294 (whole entry, looked up): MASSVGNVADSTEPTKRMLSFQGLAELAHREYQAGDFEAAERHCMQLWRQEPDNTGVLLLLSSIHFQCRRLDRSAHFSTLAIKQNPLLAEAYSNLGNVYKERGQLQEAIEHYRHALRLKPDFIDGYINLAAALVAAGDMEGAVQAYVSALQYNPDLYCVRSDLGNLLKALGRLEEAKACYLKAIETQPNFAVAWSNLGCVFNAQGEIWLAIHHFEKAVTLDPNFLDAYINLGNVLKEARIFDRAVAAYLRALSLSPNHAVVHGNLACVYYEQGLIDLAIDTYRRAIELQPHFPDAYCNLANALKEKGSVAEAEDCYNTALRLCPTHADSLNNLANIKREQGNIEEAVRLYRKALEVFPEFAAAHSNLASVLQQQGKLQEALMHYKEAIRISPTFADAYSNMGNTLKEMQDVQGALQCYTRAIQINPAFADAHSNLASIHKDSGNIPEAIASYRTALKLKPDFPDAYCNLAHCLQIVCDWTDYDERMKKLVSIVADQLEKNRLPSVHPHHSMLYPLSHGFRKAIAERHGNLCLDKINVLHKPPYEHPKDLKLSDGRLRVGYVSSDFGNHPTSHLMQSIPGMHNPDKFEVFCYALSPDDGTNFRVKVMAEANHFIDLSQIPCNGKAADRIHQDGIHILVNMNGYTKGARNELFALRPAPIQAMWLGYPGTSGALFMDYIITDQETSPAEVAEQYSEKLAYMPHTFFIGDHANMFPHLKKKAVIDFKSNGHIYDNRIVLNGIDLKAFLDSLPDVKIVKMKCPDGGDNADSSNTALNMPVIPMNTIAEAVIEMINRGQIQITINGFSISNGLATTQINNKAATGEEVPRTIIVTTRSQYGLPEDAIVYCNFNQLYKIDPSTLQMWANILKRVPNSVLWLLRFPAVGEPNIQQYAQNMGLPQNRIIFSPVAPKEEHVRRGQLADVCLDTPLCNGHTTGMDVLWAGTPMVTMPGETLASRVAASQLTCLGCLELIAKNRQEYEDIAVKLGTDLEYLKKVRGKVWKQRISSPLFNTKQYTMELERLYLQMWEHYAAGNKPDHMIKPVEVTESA
Molecule	minimum log2 enrichment ratio
GQLMMTHHPQWRQV	1.07
NMSDHHRTSYYHVRH	2.57
YFPPVYEMQVKHFQ	2.33
QDHTHFFHVVTNHHH	3.44
GRSDHTPHFEYRAHA	1.61
HYHNDFTFHFNHTFH	1.55
AHAIHPDLHQYHSHQ	1.6
HKSHTPHNMDWNTVR	1.65

Set 3 — target: CCNF, cyclin fold, Cln2 fusion (human); technique: yeast growth competition, sequencing; sample: yeast; setting: strong parent motif; baseline: not given; direction: higher = stronger binding; starting sequence: viral docking peptide; TSVRRALFTGGSD
Variant	normalised enrichment score
TSVRRALNTGGSD [F8N]	0.849
TWVRRALFTGGSD [S2W]	7.17
TSVRRLLFTGGSD [A6L]	6.88
TSVRRALFVGGSD [T9V]	8.65
TSVRRALDTGGSD [F8D]	1.18
TSVRRAQFTGGSD [L7Q]	-0.0763
TSVRRFLFTGGSD [A6F]	2.93
TFVRRALFTGGSD [S2F]	7.23

Set 4 — target: inorganic phosphate, free oxyanion; technique: microfluidic competitive inhibition; sample: in vitro, cell-free expressed; concentration: not given; direction: lower = stronger binding
Setting: derived from inhibition constants, unchanged parent 615000 nM
Starting sequence: PafA, mature enzyme, eGFP fusion (Elizabethkingia meningoseptica, UniProt Q9KJX5); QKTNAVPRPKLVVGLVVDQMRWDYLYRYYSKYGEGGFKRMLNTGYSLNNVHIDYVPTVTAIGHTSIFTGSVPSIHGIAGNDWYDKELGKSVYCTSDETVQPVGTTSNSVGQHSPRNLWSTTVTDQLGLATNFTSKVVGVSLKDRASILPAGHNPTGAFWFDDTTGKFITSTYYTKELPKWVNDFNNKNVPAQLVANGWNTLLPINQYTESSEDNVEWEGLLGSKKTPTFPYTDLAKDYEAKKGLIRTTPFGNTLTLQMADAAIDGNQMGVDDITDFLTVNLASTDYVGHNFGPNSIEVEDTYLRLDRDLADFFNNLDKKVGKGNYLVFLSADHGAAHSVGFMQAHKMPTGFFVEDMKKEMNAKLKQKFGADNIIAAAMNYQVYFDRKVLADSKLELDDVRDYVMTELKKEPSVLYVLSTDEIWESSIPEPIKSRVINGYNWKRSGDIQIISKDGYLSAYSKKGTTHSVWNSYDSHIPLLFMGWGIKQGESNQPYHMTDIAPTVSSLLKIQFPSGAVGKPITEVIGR
Variant	phosphate dissociation constant [µM]
A261G	630
N290G	598
K461V	680
E209G	528
T464G	276
A390G	600
Y54V	105
E410V	769
